Experimental data from different studies.
A part holds a random share of what one study measured. Values joined by “and” are separate records of one study, mostly repeats; a detail may differ.
UniProt P20309, sequence (whole entry, looked up): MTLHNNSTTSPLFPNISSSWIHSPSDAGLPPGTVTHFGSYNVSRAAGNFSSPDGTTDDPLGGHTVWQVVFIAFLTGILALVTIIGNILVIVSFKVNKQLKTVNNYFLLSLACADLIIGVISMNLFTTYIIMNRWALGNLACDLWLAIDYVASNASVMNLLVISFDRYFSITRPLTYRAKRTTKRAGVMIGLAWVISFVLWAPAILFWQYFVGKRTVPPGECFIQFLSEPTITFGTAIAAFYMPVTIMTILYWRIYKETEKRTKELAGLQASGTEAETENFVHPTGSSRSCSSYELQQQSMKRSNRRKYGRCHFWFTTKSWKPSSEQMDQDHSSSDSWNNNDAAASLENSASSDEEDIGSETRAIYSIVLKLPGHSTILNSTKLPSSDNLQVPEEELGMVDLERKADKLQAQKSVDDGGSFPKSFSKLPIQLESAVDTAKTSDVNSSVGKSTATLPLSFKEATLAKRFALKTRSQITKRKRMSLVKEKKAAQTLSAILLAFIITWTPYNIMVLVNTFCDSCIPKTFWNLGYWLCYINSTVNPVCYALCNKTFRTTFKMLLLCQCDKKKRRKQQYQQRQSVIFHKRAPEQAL
UniProt P78368, sequence (whole entry, looked up): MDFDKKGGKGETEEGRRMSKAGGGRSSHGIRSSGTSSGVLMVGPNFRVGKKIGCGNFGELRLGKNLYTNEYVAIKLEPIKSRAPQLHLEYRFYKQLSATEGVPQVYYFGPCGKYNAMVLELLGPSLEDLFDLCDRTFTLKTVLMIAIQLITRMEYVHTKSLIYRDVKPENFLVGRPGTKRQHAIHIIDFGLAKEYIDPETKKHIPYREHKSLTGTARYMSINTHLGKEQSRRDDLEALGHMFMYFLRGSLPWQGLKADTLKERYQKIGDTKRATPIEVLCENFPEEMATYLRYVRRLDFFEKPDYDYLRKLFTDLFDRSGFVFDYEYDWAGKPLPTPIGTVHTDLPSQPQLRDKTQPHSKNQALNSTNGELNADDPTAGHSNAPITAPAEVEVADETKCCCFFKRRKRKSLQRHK
UniProt O15303, sequence (whole entry, looked up): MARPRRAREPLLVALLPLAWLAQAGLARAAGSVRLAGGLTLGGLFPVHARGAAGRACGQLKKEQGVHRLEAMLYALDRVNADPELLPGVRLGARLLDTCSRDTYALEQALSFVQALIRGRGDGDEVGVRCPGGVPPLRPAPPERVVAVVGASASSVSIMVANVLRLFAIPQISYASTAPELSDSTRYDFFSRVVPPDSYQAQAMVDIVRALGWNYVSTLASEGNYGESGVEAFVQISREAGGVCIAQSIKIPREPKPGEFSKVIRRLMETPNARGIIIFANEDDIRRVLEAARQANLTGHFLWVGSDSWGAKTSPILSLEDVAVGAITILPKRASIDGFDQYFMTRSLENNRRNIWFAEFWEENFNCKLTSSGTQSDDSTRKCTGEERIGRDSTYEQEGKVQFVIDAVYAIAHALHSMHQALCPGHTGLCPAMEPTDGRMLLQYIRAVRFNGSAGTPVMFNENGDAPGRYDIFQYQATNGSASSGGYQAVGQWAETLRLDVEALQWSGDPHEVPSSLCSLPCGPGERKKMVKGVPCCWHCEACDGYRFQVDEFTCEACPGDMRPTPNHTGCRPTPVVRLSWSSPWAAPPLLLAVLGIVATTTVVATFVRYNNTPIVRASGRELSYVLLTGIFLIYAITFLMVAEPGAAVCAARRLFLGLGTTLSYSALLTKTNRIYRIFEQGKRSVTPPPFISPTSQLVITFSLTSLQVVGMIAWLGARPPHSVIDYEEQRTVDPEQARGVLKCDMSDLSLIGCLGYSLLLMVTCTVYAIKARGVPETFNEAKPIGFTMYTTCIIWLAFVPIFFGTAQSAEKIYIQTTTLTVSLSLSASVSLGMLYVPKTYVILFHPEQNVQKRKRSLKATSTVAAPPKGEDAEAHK
UniProt Q13258, sequence (whole entry, looked up): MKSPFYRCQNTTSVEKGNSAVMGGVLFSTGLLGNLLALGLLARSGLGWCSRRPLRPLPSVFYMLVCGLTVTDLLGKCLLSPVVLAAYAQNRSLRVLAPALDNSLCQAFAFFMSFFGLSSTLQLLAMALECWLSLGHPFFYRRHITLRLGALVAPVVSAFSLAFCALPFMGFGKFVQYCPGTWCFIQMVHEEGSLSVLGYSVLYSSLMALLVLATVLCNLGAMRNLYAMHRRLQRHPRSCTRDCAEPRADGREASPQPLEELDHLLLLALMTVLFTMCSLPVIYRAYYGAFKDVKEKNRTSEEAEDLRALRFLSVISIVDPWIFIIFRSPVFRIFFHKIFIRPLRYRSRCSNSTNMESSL
UniProt Q96LB1, sequence (whole entry, looked up): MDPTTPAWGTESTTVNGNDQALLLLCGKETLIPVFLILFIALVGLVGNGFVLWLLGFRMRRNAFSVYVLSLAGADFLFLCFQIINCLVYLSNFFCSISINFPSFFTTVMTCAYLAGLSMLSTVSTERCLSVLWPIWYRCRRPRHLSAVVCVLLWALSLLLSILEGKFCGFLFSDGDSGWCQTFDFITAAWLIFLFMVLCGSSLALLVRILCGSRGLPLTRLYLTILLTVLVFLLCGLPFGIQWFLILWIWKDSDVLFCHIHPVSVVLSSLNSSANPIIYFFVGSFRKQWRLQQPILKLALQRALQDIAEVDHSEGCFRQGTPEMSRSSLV
UniProt P41597, sequence (whole entry, looked up): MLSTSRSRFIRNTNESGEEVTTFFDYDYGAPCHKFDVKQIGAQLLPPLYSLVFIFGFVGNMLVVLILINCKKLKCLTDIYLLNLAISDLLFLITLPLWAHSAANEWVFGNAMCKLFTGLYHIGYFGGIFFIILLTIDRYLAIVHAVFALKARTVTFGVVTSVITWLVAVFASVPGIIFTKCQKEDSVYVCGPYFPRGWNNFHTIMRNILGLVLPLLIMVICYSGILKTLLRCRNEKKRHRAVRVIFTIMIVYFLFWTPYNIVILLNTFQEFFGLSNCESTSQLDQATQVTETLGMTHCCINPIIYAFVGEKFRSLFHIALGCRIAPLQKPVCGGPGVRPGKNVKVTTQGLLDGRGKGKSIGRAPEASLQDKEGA
UniProt Q9NPC1, sequence (whole entry, looked up): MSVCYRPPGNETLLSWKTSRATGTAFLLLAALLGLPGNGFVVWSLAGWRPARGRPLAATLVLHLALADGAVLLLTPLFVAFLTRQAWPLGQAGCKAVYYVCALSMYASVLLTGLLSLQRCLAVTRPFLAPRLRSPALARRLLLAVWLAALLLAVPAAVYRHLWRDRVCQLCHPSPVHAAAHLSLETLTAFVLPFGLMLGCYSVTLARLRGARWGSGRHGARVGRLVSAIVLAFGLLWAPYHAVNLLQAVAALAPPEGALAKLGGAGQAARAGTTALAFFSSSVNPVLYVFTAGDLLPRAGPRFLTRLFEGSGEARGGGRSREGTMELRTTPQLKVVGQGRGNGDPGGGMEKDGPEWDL
UniProt P43220, sequence (whole entry, looked up): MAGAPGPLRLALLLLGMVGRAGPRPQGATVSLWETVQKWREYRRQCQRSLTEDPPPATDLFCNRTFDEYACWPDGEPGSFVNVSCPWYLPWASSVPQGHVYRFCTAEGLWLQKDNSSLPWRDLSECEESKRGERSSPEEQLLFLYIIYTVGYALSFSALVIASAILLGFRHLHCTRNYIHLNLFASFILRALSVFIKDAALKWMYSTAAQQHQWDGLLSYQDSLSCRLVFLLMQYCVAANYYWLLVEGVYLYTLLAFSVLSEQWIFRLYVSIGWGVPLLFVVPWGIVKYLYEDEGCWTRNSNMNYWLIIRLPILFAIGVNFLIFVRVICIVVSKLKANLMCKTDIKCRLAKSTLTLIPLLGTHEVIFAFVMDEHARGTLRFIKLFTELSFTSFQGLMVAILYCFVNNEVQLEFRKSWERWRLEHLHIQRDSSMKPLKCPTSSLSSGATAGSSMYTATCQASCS
UniProt Q99500, sequence (whole entry, looked up): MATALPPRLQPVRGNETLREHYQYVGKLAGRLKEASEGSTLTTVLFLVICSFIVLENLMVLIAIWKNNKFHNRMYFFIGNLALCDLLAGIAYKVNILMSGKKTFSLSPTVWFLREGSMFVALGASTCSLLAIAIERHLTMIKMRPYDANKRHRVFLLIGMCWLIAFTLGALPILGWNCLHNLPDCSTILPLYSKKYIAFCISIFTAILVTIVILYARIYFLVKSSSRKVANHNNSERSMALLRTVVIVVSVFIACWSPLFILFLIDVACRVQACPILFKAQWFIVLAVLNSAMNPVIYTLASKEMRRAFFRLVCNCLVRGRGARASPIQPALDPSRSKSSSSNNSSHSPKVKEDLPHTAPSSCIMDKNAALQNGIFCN

Series 1
SMILES: NC(N)=NC(=O)c1nc(Cl)c(N2CCCCCC2)nc1N
Effect on: β-arrestin recruitment
Mode: agonist
Technique: PRESTO-Tango
Concentration: 10 µM
Baseline: untreated
target	fold over basal
CHRM3 (Homo sapiens, UniProt P20309)	0.7
S1PR3 (Homo sapiens, UniProt Q99500)	0.7
MRGPRX2 (Homo sapiens, UniProt Q96LB1)	0.69
GLP1R (Homo sapiens, UniProt P43220)	0.35 fold
Leukotriene B4 receptor 2, isoform b (LTB4R2, Homo sapiens, UniProt Q9NPC1)	0.75
C-C chemokine receptor type 2, isoform B (CCR2, Homo sapiens, UniProt P41597)	0.62
PTGDR (Homo sapiens, UniProt Q13258)	1.59
Metabotropic glutamate receptor 6 (Homo sapiens, UniProt O15303)	0.88 fold

Series 2
Cell line: mouse MPNST tumor cells
Technique: high-content immunofluorescence imaging
Refers to: nuclear SOX9
Concentration: 10 µM
Time: 12 h
Setting: mean of 2 replicates
Baseline: DMSO control
Direction: higher = more nuclear SOX9
SMILES	nuclear SOX9 intensity
Cc1onc(-c2ccccc2)c1-c1ccc(S(N)(=O)=O)cc1	99.4 % of DMSO and 111 % of DMSO
CCC(CC)(CC(=O)Nc1cccc(/C=C/c2nc(C3CCC3)cs2)c1)C(=O)O	89.1 % of DMSO
COc1ccc2c(c1)C(=O)N(CCc1ccc(S(=O)(=O)NC(=O)NC3CCCCC3)cc1)C(=O)C2(C)C	85.8 % of DMSO
CCn1c(=Cc2cccc[n+]2CC)sc(=C2Sc3ccccc3N2C)c1=O	94.7 % of DMSO
CCCSc1ccc2[nH]c(NC(=O)OC)nc2c1	156 % of DMSO and 194 % of DMSO
Fc1ccc(Nc2nc(-c3ccccc3)cs2)cc1	80.3 % of DMSO
NC(=O)N1c2ccccc2CC(O)c2ccccc21 (stereo not drawn)	96 % of DMSO
Nc1ccc(/N=N/c2ccccc2)c(N)n1	101 % of DMSO

Further values, each from its own experiment
Mode: inhibitor
Structure (SMILES)	target	test	setting	scale	measurement	result
N/C(=N\[N+](=O)[O-])N/N=C\c1ccc(-c2cccc([N+](=O)[O-])c2)o1	CSNK1G2 (Homo sapiens, UniProt P78368)	enzyme activity	0.5 µM	baseline: control	remaining activity	101%
C=CCc1ccc(O)c(-c2cc(CC=C)ccc2O)c1	Anoctamin-1 (ANO1, Homo sapiens, UniProt Q5XXA6, del476-501)	chloride current, whole-cell voltage clamp	wild type at 100 mV, added: 3 µM honokiol	baseline: with over without honokiol	potency fold increase	1.16
